# Measurements pooled from the literature.
# Parts stem from different laboratories: compare values within a part only.

# Study 1 — technique: protein binding microarray; form: double-stranded DNA, one strand shown; matrix: in vitro; concentration: not given; reference: not given; reading: higher = stronger binding
# Target: Histone acetyltransferase KAT6A, winged helix 2, GST fusion (KAT6A, Homo sapiens, UniProt Q92794, residues 85-181)
# Setting: 8-mer, flanks averaged, mean of 2 arrays, mostly near background
# Residues (chain): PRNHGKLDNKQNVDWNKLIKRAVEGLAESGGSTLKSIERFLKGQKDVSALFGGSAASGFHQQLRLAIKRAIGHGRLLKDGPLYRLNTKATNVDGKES
Oligonucleotide,E-score
GCCGACCA,0.0755
TATTATCA,-0.0209
CGTGTATC,-0.00954
CTCCAAGA,0.065
GTGAGGCA,-0.103
GTAGAGGA,-0.169
GATATTCC,0.0921
AACGCGGT,0.0924
AGTCATTG,-0.267
GACCCGAC,0.195
AACCCTAG,0.00556
CATATCGC,-0.0153
AGTAACAG,-0.0597
AGATTTCC,-0.0284
CGCGGGAC,0.0741
GCCTTACA,-0.181
AGAACTTC,-0.0378
CGCTAGAA,-0.0143
CATCCCGC,0.0746

# Study 2 — technique: protein-binding microarray; form: double-stranded DNA, one strand shown; matrix: in vitro; concentration: 2200 nM top; setting: 60-bp whole probe; with: salmon DNA 0.4 mg/ml; reference: random background probes; reading: higher = stronger binding; all sequences stand within: GCCTAGCAC … GTCTTGATTCGCTTGACGCTGCTG
# Target: Interferon regulatory factor 7, full length, phosphomimetic (IRF7, Homo sapiens, UniProt Q92985, residues 1-503, S471D/S472D/S475D/S476D/S477D/S483D/S484D/S487D)
# Sequence of UniProt Q92985 (whole entry, unmodified, looked up): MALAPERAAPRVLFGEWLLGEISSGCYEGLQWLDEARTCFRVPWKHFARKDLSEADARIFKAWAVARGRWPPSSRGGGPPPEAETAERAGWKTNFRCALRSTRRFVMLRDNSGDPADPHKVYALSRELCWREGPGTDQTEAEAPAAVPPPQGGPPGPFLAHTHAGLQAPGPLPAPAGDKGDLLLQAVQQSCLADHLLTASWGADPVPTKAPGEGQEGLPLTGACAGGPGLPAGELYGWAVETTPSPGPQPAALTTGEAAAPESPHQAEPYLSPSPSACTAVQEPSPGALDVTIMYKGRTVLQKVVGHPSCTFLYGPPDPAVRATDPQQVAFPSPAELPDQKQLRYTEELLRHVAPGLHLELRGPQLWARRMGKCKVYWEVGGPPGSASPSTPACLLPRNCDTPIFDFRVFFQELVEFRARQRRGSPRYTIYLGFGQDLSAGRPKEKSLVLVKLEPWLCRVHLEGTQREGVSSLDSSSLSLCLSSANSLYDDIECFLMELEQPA
Oligonucleotide,fitted relative affinity [z-score]
GACGGTATCGGTCTCGTGACGTGCTAG,0.372
TTAGAACTGAGACTGGATAAGTGCTAG,-0.687
GACGGTTTTGGGTTTCGGGACGTGCTA,3.39
GCCGGTATCGGTCTCGGGACGTGCTAG,0.0724
AGTCGTGAGCCGCACAGTGGGTGCTAG,-0.965
TCAATCATCCGTTTCTTACTGTGCTAG,1.89
CACGGTTTCGGTTCCGGGACGTGCTAG,11.8
CGCGCTTCTCGGCGGCGAAGGTGCTAG,0.538
CCTAGTTTTACTTTCTATGTGTGCTAG,3.93
CTTTCTTTCCATACTGCAAGGTGCTAG,4.1
TCAACTCTCTGGGCTGTGACTGTGCTA,0.416
TTAGATATCAGTTTCGATAAGTGCTAG,2.7
GACGGTTTCGCGTTTCGGGACGTGCTA,5.44
GACGGTCTCGGTTTCGGTACGTGCTAG,5.17
TTAGGATTGCTTATCCTTTAGTGCTAG,0.373
TTAGGTATCGGGTTTAGGTTAGTGCTA,0.718
TCACCTGTCCATTCCTTACTGTGCTAG,2.73
TTAGGACTAGACTTTCGGTTAGTGCTA,4.34
GGCGATTTCAGTATCGAGACGTGCTAG,0.594
TTAGATTCCAGTTTCGAGTAGTGCTAG,4.51
TTAGAACAGAGTCTCGATTAGTGCTAG,-0.523
GACGGACTGGACTTTCGGCACGTGCTA,0.553
TTAGGTATCGGGTTTCGGTTCGTGCTA,8.59
ATATCTAAAAAGTCTCTGGGAGTGCTA,-0.663
TCAGTTTTCATTTTCTGACTGTGCTAG,6.62

# Study 3 — technique: universal PBM; form: double-stranded DNA, one strand shown; matrix: in vitro; concentration: not given; reading: higher = stronger binding
# Target: Sal-like protein 4, full length isoform B (SALL4, Homo sapiens, UniProt Q9UJQ4-2, residues 1-616)
# Setting: 8-mer, flanks averaged, mean of replicates
# Residues (chain): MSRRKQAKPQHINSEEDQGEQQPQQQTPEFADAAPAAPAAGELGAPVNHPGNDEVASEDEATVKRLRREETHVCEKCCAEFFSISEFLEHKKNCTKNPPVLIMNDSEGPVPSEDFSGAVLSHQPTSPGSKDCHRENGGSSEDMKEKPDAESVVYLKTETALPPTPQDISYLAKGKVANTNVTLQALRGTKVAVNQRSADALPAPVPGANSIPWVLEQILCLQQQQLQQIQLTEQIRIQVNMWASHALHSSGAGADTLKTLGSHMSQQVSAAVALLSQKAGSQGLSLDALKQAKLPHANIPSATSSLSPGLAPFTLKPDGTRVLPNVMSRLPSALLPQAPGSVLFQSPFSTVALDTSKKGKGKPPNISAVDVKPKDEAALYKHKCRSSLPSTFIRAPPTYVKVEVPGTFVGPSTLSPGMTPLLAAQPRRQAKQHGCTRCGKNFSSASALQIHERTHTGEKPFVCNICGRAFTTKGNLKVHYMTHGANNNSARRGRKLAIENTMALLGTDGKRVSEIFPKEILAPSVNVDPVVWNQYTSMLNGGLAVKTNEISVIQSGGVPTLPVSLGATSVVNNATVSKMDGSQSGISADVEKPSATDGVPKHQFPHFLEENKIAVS
Oligonucleotide,E-score
AGAACAGA,0.0138
CACTCGAC,-0.16
CTACCCAC,-0.208
GTCCGGAA,-0.165
AGGCCTGG,-0.282
CCACTACC,-0.094
ATTGCATC,0.0704
AGACAGCA,-0.0222
CACAGAAG,-0.0953
ATGGAAAG,0.137
TCAATACA,0.251
AAATGTTA,0.291
CTCGCTTA,0.0476
AGGCCCGC,-0.322
CGTATCGA,0.0333
AGAGGTAG,-0.0314
CCAACCTC,-0.0545

# Study 4 — technique: RNA Bind-n-Seq; form: RNA; matrix: in vitro; concentration: 365 nM; reference: no-protein control; reading: higher = stronger binding
# Target: RNA binding protein fox-1 homolog 2, RRM domain, GST-SBP tag (RBFOX2, Homo sapiens, UniProt O43251-10, residues 100-194)
# Setting: natural RNA segment, single round, ends assumed
# Residues (chain): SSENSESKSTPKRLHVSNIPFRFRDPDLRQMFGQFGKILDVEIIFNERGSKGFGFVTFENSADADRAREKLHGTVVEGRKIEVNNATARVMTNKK
Oligonucleotide,RBNS enrichment (R)
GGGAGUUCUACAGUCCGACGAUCAAAAGGGAGAGAGAAAAGACAGGAACUGAUGAGAUAGUUUGAAAGCUGAAGGAGUUCUGAGUUUGUUUAGUUCUUUAUUCCAUCUCUGUGCGGCCUCCCGAGCCUACGUUUGGAAUUCUCGGGUGCCAA,1.46
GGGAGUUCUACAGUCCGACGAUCACUAGUUCUGUCCCCCCAGGAGACCUGGUUGUGUGUGUGUGAGUGGUUGACCUUCCUCCAUCCCCUGGUCCUUCCCUUCCCUUCCCGAGGCACAGAGAGACAGGGCAGGAUGGAAUUCUCGGGUGCCAA,0.491
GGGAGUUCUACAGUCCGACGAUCAGUCUGGACCCUUUUGUCACAGUACAGCUCUUGUCUUUACCAACUGCCUGAAGAGGCCAUAUGCUGGCAUUUUGCACAACUUUUUGGUUGUUUAGAUCCUACAGAUGACCUGGAAUUCUCGGGUGCCAA,0.348
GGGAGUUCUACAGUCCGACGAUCCGUUACCUAAGCUAGCGUGGGCUUCCAGUUGCCUUAAUAGAAGUACUCAAGUCUCUUGGGUAGAGAUCUGGAAGCCUGCAGGAGAGGAGGGGUACUUGUUUUCAUUGGAAUGGAAUUCUCGGGUGCCAA,0.526
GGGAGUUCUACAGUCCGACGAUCCAGCCUUCCACAUCGUGUCAGUGUUGGCUGCCCAGGUUGGAAGCGAAGACUUGAUUGAUAGCAUGGUUUCAAGAGAGAAGUGGGGCCACACACAAAAUCACCAAUGAUUCUGGAAUUCUCGGGUGCCAA,3.19
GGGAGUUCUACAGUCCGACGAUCAAGAGCUUAACUUUGUCUUUUGGGUGAGUAGCUAUAGGUUUGAGAGAGGCUGGCUACUCCUAGUUCCUGUGCUUCUUCCCAUCUCCUGUGAUCCCCCUCUCCCAUUUAUUUGGAAUUCUCGGGUGCCAA,0.288
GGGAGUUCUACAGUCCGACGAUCCUUUUCUAACAGGCUCAGUCCUUACGAGCUUCUCAACACUGGUUCUUCUGUUAAGAGUGACUGUUCAUUCAGGGAGCUGAGAAUUCUGGCACAGAUCUUUGUCCCAAGCCUGGAAUUCUCGGGUGCCAA,0.226
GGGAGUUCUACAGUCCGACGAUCGCAGGUGUCUUAAUUUACUCAACCUUCCCUAAAAGAGAAUUGUAUUGGGGCAGGAGGGAUCGCAGUUCUUCAAAUUCAGGUCUUCGAAGAUAAUUUCCAGGUGUCUUCUCUGGAAUUCUCGGGUGCCAA,0.619
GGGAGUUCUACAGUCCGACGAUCUUUUGUUCCUUCAUAGGAAAAAAAUGUAUAAAUUUGUAAAUCUUAAUUCAAAGAUAACUUUUGUGUGGGUAUUGAGUUUGGAUCGGUUUUUUGUCUUGGUGUGGGCUGUGUGGAAUUCUCGGGUGCCAA,1.39
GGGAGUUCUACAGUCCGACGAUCCAUUUUCUCCAAAGCAGGCUGCCUCUUCAGCAGGAGCAAAUACUUUAAUUUAAAAGAAUGAUUAUCUGUUUUCUCCUUUUAGAAAAAGAGUCUAAGAAACACAGCAUGUGUGGAAUUCUCGGGUGCCAA,17
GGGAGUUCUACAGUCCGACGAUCAGACUGUUCCAUCUCAUUCCUCGCAAAUUUGAGCUCUUCUGAUCAAUUCUAAAUAUUUGAUUAAUUUUAAUUCUGAAAGAAAAUUUUGAGGAUUUAAGCUUAGGGGAUUUUGGAAUUCUCGGGUGCCAA,0.378
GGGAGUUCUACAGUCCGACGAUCGGAAGGCAAAGCAGAUAUGGAGACUCUCCAGAGAAUUUAUGGCAUUUCAUUCCCAGAUCCUAAAAUGUUGAAAGAGUGGGAGAAGUUCCAAGAGGAAGCUAAAAACCGAGUGGAAUUCUCGGGUGCCAA,0.665

# For quick reference, copied from above (study 2):
Oligonucleotide,fitted relative affinity [z-score]
TTAGGTATCGGGTTTAGGTTAGTGCTA,0.718
TCACCTGTCCATTCCTTACTGTGCTAG,2.73
TTAGGACTAGACTTTCGGTTAGTGCTA,4.34
GGCGATTTCAGTATCGAGACGTGCTAG,0.594
TTAGATTCCAGTTTCGAGTAGTGCTAG,4.51
TTAGAACAGAGTCTCGATTAGTGCTAG,-0.523
